{"data": "Results of several laboratories", "note": "Each line is one published result; not all experiments were run side by side. Several values in a cell are separate wells, animals, samples, runs or records. ± gives the spread as reported."}
{"Structure (SMILES)": "Cn1ncc2cc(-c3cncc(Cl)c3N3CCC4(CCNC4=O)CC3)ccc21", "target or system": "LS174T", "assay": "gene expression, microarray, refers to: CXCL8 mRNA", "conditions": "concentration not given, 24 h", "how to read": "reference: untreated cells", "measurement": "log2 fold change", "value": -26.3}
{"Structure (SMILES)": "O=C(CC1CCOCC1)Nc1ccc([C@H]2[C@@H](F)[C@@H](F)C[C@@H](F)[C@H]2F)cc1", "assay": "hepatocyte stability", "system": "cryopreserved rat hepatocytes", "conditions": "1 µM", "measurement": "hepatic clearance", "value": "22 mL/min/kg"}
{"Structure (SMILES)": "O=S(=O)(N[C@H]1CCO[C@@H](C2c3ccccc3CCc3ccccc32)C1)c1ccc(OC(F)(F)F)cc1", "target or system": "D425", "assay": "immunoblot, refers to: CIP2A", "conditions": "concentration not given", "measurement": "protein level", "value": "decreased"}
{"Structure (SMILES)": "CNS(=O)(=O)Nc1nccc(Cc2c(C)c3ccc(Oc4ncccc4F)cc3oc2=O)c1F", "target or system": "NCI-H1703", "assay": "cell viability", "conditions": "7 days", "measurement": "IC50", "value": "> 1000 nM"}
{"Structure (SMILES)": "CCN(CC)CC(=O)Nc1cccc(-n2cc(-c3ccc4ccc(-c5cn(-c6cccc(NC(=O)CN(CC)CC)c6)nn5)cc4c3)nn2)c1", "target or system": "RCC4", "assay": "PCR angiogenesis array, refers to: KDR", "conditions": "5 x IC50, 4 h, normoxia", "how to read": "reference: untreated", "measurement": "fold regulation", "value": 1.06}
{"Structure (SMILES)": "Cc1ncsc1-c1ccc(C(C)NC(=O)C2CC(O)CN2C(=O)C(NC(=O)CCCCCCCCCCN2CCCC(Nc3ncc(Cl)c(Nc4ccccc4S(=O)(=O)C(C)C)n3)C2)C(C)(C)C)cc1 (centres unmarked)", "target or system": "22Rv1", "assay": "RNA-seq, refers to: TPPP mRNA", "conditions": "concentration not given", "how to read": "reference: DMSO", "measurement": "log2 fold change", "value": -1.36}
{"Structure (SMILES)": "O=C(N/N=C/c1cc[n+](CC2CC2)c2ccccc12)c1ccc2ccc(C(=O)N/N=C/c3cc[n+](CC4CC4)c4ccccc34)nc2n1", "target or system": "22CTA telomeric G4-DNA antiparallel", "assay": "FRET melting", "conditions": "1 µM, K10 buffer, DNA 0.2 µM", "measurement": "ΔTm", "value": "20.6 ± 0.4 °C"}
{"Structure (SMILES)": "COc1ccccc1-c1ccncc1C(=O)Nc1nnc(OCc2ccc(Cl)cc2)s1", "target or system": "MDA-MB-231", "conditions": "6 µM, single replicate", "measurement": "colony count", "value": "32 and 34 and 23 and 19"}
{"Structure (SMILES)": "C[n+]1ccc(/C=N/NC(=O)c2cc(C(=O)N/N=C/c3cc[n+](C)c4ccccc34)ncn2)c2ccccc21", "target or system": "22CTA telomeric G4-DNA antiparallel", "assay": "FRET melting", "conditions": "1 µM, K10 buffer, DNA 0.2 µM", "measurement": "ΔTm", "value": "3.7 ± 0.9 °C"}
{"Structure (SMILES)": "CO[C@@H]1[C@@H](OC(N)=O)[C@@H](O)[C@H](Oc2ccc3c(O)c(NC(=O)c4ccc(O)c(CC=C(C)C)c4)c(=O)oc3c2C)OC1(C)C", "target or system": "HCT-116 BRCA2-/-", "conditions": "75 µM, replicate 1", "measurement": "colony count", "value": 23.5}
{"Structure (SMILES)": "CN1CCCNC(=O)c2cccc(c2)C(=O)NCCCN(C)CCCNc2cccc3c2C(=O)c2cccc(c2C3=O)NCCC1", "target or system": "SAS", "assay": "RNA-Seq, refers to: PAWR mRNA", "conditions": "1 µM, 6 h", "how to read": "reference: untreated cells", "measurement": "log2 fold change", "value": -0.4}
